Assay results pooled from the literature.
Protocols differ between the studies behind these lines.
Sample: plasma

CN1Cc2c(Cl)cc(Cl)cc2C(c2ccc(S(=O)(=O)NCCOCCOCCOCCNC(=O)C(O)C(O)C(=O)NCCOCCOCCOCCNS(=O)(=O)c3ccc(C4CN(C)Cc5c(Cl)cc(Cl)cc54)cc3)cc2)C1 (stereo not shown)
AUC (male Sprague-Dawley rat; oral, 10 mg/kg): < 19 ng·h/mL

Cc1cc(/C=C/C#N)cc(C)c1Oc1nc(NC2CCN(Cc3ccc(P(C)(C)=O)cc3)CC2)nc2ccsc12
AUC (male Sprague-Dawley rat; intravenous, 2 mg/kg): 635 ng·h/mL

CC(C)(C)C(=O)Nc1ccc2[nH]c(CN3CCC(N(CCCN4CCOCC4)CC4OC(n5cnc6c(N)ncnc65)C(O)C4O)CC3)nc2c1 (stereo not shown)
AUC (male Sprague-Dawley rat; intraperitoneal, 20 mg/kg): 2650 ng·h/mL

C[Si]1(C)CNC(=O)c2ccccc21
AUC(0-inf) (rat; oral, 5 mg/kg, single dose): 3180 ng·h/mL

C#Cc1cccc(Nc2ncnc3cc(OC)c(OCCCN4CCOCC4)cc23)c1
AUC (Sprague-Dawley rat; intravenous, 10 mg/kg): 6110 ng·h/mL

CN1Cc2c(Cl)cc(Cl)cc2C(c2cccc(S(=O)(=O)NCCOCCOCCNC(=O)C(O)C(O)C(=O)NCCOCCOCCNS(=O)(=O)c3cccc(C4CN(C)Cc5c(Cl)cc(Cl)cc54)c3)c2)C1 (stereo not shown)
AUC (male Sprague-Dawley rat; oral, 9 mg/kg): < 4 ng·h/mL

N[C@H](COc1ccccc1C(F)(F)F)c1ccccc1
AUC (rat; intravenous, 5 mg/kg): 407 ng·h/mL

CCCCC1NC(=O)c2ccccc21 (racemic)
AUC (Wistar rat; oral, 10 mg/kg): 12800 ng·h/mL

Cc1ccc(OCC(=O)N(Cc2cccs2)c2ccn[nH]2)cc1
AUC(0-t) (female Sprague-Dawley rat; oral, 30 mg/kg, single dose): 29.1 ng·h/mL

CSCOC1C(=O)C2(C)C(OCSC)CC3OCC3(OC(C)=O)C2C(OC(=O)c2ccccc2)C2(O)CC(OC(=O)C(O)C(C=C(C)C)NC(=O)OC(C)(C)C)C(C)=C1C2(C)C (stereo not shown)
AUC(0-inf) (female Sprague-Dawley rat; intravenous, 4 mg/kg): 1050 ng·h/mL

A few entries again:
CCCCC1NC(=O)c2ccccc21 (racemic)
AUC (Wistar rat; oral, 10 mg/kg): 12800 ng·h/mL
